Published values from different studies.
Numbered parts are unrelated; each lists some results of a single study.
UniProt P09619, sequence (whole entry, looked up): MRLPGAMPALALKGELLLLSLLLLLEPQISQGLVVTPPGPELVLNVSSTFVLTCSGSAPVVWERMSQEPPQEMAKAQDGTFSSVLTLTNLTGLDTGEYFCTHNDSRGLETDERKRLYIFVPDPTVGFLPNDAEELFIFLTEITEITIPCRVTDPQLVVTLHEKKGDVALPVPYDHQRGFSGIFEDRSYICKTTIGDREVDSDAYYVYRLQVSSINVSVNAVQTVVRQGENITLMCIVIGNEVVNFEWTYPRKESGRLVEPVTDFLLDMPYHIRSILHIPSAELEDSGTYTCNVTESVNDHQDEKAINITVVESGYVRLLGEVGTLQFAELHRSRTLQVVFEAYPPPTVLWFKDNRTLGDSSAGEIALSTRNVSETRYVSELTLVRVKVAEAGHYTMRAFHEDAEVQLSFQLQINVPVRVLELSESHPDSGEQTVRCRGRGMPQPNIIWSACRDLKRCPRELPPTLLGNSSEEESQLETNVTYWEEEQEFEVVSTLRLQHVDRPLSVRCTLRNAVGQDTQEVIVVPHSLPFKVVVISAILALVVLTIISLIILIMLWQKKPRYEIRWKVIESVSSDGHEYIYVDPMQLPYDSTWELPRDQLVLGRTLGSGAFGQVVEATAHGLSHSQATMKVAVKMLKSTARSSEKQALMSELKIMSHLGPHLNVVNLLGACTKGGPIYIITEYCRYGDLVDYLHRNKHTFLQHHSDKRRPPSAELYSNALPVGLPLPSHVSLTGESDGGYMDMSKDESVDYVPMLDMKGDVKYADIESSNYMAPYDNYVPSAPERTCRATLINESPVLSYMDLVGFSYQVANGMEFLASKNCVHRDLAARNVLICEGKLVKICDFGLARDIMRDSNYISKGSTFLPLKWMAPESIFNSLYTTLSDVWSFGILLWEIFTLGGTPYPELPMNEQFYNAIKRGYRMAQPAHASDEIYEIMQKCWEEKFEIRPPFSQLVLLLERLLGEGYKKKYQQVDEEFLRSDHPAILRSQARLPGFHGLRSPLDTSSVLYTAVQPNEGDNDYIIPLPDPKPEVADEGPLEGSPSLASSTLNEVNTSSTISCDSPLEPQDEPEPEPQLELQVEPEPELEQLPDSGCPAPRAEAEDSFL
UniProt Q9Y3S1, sequence (whole entry, looked up): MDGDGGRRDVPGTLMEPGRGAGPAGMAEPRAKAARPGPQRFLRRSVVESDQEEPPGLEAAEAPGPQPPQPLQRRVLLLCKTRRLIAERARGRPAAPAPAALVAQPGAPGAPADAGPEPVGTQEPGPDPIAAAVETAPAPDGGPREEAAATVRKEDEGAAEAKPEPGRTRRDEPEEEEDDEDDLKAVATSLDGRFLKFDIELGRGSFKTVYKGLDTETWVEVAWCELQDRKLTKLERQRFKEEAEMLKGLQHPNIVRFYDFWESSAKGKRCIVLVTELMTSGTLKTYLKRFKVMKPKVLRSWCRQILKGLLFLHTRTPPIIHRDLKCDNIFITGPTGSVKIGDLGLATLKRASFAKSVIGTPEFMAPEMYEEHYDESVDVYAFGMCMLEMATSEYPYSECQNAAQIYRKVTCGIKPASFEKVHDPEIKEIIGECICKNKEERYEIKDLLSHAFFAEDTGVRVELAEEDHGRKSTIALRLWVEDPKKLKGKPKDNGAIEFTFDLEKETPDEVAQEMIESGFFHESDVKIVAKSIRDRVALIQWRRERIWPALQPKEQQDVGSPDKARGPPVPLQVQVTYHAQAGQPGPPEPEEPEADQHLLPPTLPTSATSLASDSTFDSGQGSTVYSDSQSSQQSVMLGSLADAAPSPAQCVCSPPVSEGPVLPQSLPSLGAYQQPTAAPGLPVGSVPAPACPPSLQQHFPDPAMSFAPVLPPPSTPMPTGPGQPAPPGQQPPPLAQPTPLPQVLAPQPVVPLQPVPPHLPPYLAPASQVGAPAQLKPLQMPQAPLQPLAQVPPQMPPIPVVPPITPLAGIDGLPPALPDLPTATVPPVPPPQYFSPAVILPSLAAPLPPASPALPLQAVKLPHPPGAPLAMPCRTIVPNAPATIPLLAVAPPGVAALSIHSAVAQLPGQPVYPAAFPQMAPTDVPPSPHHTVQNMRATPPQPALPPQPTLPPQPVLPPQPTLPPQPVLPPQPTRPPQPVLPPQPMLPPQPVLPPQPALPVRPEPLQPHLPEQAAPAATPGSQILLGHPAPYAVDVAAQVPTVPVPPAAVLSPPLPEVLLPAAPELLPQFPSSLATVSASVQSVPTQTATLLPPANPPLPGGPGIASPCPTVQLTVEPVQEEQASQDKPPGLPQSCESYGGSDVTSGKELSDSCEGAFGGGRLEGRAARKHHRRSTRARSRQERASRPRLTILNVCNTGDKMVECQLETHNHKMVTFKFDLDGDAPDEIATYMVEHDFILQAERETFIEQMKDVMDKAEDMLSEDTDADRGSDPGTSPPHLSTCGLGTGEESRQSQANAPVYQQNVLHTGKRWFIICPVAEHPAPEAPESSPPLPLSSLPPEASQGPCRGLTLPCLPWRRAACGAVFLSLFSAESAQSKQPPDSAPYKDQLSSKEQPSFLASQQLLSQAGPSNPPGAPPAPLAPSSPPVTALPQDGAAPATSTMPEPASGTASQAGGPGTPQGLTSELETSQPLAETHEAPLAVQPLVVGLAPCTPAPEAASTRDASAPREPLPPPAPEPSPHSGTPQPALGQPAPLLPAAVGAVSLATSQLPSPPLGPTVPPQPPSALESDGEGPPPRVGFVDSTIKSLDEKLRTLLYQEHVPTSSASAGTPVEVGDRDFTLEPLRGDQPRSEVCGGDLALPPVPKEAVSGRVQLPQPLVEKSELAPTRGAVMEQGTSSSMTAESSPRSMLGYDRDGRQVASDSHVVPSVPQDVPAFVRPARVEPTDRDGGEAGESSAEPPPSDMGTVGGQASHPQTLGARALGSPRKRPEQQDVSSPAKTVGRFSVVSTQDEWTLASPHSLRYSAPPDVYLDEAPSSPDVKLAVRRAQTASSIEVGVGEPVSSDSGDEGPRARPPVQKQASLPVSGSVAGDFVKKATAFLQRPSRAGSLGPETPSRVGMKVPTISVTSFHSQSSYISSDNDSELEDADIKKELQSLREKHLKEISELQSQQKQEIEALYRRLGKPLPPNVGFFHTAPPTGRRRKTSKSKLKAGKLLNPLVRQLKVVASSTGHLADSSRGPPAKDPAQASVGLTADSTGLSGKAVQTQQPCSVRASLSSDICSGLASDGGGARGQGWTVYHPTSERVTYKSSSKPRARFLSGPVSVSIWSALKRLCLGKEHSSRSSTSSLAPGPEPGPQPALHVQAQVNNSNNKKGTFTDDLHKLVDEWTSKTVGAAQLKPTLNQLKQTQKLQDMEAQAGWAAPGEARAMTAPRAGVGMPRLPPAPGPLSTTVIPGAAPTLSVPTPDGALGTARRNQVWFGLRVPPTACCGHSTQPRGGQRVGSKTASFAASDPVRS
UniProt O94806, sequence (whole entry, looked up): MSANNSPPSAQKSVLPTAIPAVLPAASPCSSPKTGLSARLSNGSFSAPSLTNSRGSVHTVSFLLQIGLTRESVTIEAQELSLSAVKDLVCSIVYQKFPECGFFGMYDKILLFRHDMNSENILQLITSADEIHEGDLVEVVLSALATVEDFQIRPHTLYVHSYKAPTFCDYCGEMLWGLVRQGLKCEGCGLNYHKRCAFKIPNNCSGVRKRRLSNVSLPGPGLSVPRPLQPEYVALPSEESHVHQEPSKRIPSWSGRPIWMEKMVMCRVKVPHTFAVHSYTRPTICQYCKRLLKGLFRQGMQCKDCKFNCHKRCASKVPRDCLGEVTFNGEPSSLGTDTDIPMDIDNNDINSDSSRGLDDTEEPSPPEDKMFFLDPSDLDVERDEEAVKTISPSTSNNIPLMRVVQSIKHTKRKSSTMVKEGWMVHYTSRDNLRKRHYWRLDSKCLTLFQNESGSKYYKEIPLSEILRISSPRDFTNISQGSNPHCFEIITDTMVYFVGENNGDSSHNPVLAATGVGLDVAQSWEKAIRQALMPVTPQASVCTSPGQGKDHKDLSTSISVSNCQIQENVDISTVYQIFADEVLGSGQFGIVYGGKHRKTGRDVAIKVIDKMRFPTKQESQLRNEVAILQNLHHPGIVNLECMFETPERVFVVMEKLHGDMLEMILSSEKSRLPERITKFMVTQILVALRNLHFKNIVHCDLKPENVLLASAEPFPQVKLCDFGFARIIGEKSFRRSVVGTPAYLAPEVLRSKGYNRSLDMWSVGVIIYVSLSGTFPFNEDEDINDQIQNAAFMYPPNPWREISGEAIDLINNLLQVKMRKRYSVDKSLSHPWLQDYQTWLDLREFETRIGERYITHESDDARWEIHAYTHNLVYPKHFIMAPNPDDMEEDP
UniProt Q8IVW4, sequence (whole entry, looked up): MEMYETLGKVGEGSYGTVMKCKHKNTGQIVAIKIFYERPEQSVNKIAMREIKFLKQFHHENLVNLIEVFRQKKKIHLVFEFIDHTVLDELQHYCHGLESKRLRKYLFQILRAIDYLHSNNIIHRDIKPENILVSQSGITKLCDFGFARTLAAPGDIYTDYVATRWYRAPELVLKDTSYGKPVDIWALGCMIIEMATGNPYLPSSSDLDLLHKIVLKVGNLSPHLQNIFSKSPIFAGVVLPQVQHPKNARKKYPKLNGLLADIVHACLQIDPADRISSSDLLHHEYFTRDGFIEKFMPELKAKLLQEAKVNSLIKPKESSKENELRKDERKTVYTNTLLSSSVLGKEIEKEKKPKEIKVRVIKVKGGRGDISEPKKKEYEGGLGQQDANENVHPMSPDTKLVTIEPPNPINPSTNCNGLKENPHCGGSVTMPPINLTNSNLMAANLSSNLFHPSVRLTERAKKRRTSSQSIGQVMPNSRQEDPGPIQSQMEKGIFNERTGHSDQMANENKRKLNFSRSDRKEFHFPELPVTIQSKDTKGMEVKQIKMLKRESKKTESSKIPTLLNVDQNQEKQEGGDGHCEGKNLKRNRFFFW

Study 1
SMILES: CN1CCN(C(=O)c2ccc(NC(=O)Nc3ccc(N(C)c4ccnc(Nc5ccc(CS(C)(=O)=O)cc5)n4)cc3)cc2)CC1
Effect on: binding
Concentration: 1 µM
target	method	remaining binding [%]
Ephrin type-B receptor 2 (EPHB2, Homo sapiens, UniProt P29323)	competition with immobilised ligand	76
Serine/threonine-protein kinase Nek7 (NEK7, Homo sapiens, UniProt Q8TDX7)		93
Mast/stem cell growth factor receptor Kit, autoinhibited (KIT, Homo sapiens, UniProt P10721)		35
Serine/threonine-protein kinase ULK1 (ULK1, Homo sapiens, UniProt O75385)		79
Ribosomal protein S6 kinase alpha-1, N-terminal kinase domain (RPS6KA1, Homo sapiens, UniProt Q15418)	competition with immobilised ligand	100
Phosphatidylinositol 4,5-bisphosphate 3-kinase catalytic subunit alpha isoform (PIK3CA, Homo sapiens, UniProt P42336, E542K)		98
Dual serine/threonine and tyrosine protein kinase (DSTYK, Homo sapiens, UniProt Q6XUX3)		5.4

Study 2
Structure (SMILES): CCS(=O)(=O)c1cc2cc(C[C@](O)(CC(C)(C)c3ccc(F)cc3C(N)=O)C(F)(F)F)[nH]c2cn1
Concentration: 1 µM
target	effect on	method	remaining binding [%]
Cyclin-dependent kinase-like 3 (CDKL3, Homo sapiens, UniProt Q8IVW4)	cell-free assay	competition with immobilised ligand	100
Bone morphogenetic protein receptor type-1B (BMPR1B, Homo sapiens, UniProt O00238)	cell-free assay	competition with immobilised ligand	100
Serine/threonine-protein kinase WNK2 (WNK2, Homo sapiens, UniProt Q9Y3S1)	cell-free assay	competition with immobilised ligand	100
Cyclin-dependent kinase 19 (CDK19, Homo sapiens, UniProt Q9BWU1)		competition binding	100
Platelet-derived growth factor receptor beta (PDGFRB, Homo sapiens, UniProt P09619)	cell-free assay	competition with immobilised ligand	100
Serine/threonine-protein kinase D3 (PRKD3, Homo sapiens, UniProt O94806)	cell-free assay	competition with immobilised ligand	99
Serine/threonine-protein kinase mTOR (MTOR, Homo sapiens, UniProt P42345)	cell-free assay	competition with immobilised ligand	77

Study 3
Target: Platelet-derived growth factor receptor beta (PDGFRB, Homo sapiens, UniProt P09619)
Effect on: enzyme activity
Mode: inhibitor
Concentration: 0.5 µM
Reference: control
Structure (SMILES)	remaining activity [%]
OCC(O)CCON=C1C(c2c(O)[nH]c3ccccc23)=Nc2ccccc21 (stereo not drawn)	42.8
COc1cc2ncnc(Nc3ccc(F)c(Cl)c3)c2cc1OCCCN1CCOCC1	93.9
O=C(Nc1cccc(Nc2cc(Nc3cccc(C(F)(F)F)c3)ncn2)c1)C1CC1	101
COc1ccc(CNC(=O)Nc2ncc([N+](=O)[O-])s2)cc1	125
O=C(CCCc1ccc(-c2ccccc2F)cc1)Nc1ccc(O)cc1	98.2
O=C(O)c1ccc2c3c1cccc3c(=O)n1c3ccccc3nc21	107
O=C1NC(=O)C(c2cn(CCCO)c3ncccc23)=C1c1cnccn1	102
O=S(=O)(c1cccc2cnccc12)N1CCCNCC1	102
Cc1nc(-c2ccccc2)c(-c2ccncc2)o1	109
Cn1sc(=O)n(Cc2ccccc2)c1=O	87.3
COc1cc2ncnc(Nc3ccc(Oc4ccccc4)cc3)c2cc1OC	95.6
CC(C)[C@H](CO)Nc1nc(Nc2cc(N)cc(Cl)c2)c2ncn(C(C)C)c2n1	98.1
Nc1[nH]nc2nc3ccccc3nc12	98.1
NCCNc1ncc(C(N)=O)c(Nc2cccc(C(F)(F)F)c2)n1	78.2

Study 4
Organism: Sarcocystis neurona
Effect on: parasite growth
Concentration: 10 µM
Time: 96 h
Notes: secondary screen
Structure (SMILES)	inhibition [%]
O=C(O)c1cc(/N=N/c2ccc(S(=O)(=O)Nc3ccccn3)cc2)ccc1O	-29.4
CN(C)CCc1c[nH]c2ccc(C[C@H]3COC(=O)N3)cc12	-22.9
NC(=O)c1cnccn1	-3.8
CCCCc1nc(Cl)c(CO)n1Cc1ccc(-c2ccccc2-c2nn[nH]n2)cc1	-17.3
Cc1ccc(Cl)c(Nc2ccccc2C(=O)O)c1Cl	-29
Cc1ncc([N+](=O)[O-])n1CCO	-17.8
Clc1ccc(COC(Cn2ccnc2)c2ccc(Cl)cc2Cl)cc1 (stereo not drawn)	6.8
CC1(C)S[C@@H]2[C@H](NC(=O)[C@H](N)c3ccccc3)C(=O)N2[C@H]1C(=O)O	-19.9
CC=CC(=O)N(CC)c1ccccc1C (mixture of isomers)	-25.2
O=c1[nH]cnc2c1ncn2[C@H]1CC[C@@H](CO)O1	-31.9
C=CCc1ccc(O)c(-c2ccc(O)c(CC=C)c2)c1	-39.3

For quick reference, copied from above (study 2):
target	effect on	method	remaining binding [%]
Cyclin-dependent kinase-like 3 (CDKL3, Homo sapiens, UniProt Q8IVW4)	cell-free assay	competition with immobilised ligand	100
Bone morphogenetic protein receptor type-1B (BMPR1B, Homo sapiens, UniProt O00238)	cell-free assay	competition with immobilised ligand	100
Serine/threonine-protein kinase WNK2 (WNK2, Homo sapiens, UniProt Q9Y3S1)	cell-free assay	competition with immobilised ligand	100
Cyclin-dependent kinase 19 (CDK19, Homo sapiens, UniProt Q9BWU1)		competition binding	100
Platelet-derived growth factor receptor beta (PDGFRB, Homo sapiens, UniProt P09619)	cell-free assay	competition with immobilised ligand	100
Serine/threonine-protein kinase D3 (PRKD3, Homo sapiens, UniProt O94806)	cell-free assay	competition with immobilised ligand	99
